Experimental data pooled from the literature.
Compare with care: the assays were run in different laboratories. “And” joins repeats or separate records; there may be more than shown. Numbers after ± are the reported error.
PKN3: Serine/threonine-protein kinase N3 (PKN3, Homo sapiens, UniProt Q6P5Z2)
Sequence of UniProt P11678 (whole entry, looked up): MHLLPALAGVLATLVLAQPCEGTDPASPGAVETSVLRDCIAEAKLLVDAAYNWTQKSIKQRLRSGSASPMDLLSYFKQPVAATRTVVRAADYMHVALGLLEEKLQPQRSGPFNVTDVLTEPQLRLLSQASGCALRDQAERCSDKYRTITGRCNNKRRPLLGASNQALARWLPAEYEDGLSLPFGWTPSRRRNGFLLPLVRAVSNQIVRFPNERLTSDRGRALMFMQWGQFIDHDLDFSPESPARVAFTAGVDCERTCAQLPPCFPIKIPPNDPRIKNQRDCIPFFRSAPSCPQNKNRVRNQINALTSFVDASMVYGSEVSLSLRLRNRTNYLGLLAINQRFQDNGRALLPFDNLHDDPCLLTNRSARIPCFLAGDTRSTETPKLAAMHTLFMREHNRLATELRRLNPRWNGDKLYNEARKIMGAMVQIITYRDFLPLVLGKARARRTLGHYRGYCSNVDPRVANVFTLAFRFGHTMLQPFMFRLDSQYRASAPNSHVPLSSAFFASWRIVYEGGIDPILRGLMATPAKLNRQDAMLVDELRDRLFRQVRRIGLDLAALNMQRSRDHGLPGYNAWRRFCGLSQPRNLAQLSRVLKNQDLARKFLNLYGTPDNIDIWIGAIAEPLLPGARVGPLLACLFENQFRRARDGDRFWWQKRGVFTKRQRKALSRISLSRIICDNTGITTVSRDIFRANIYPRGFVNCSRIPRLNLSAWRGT
Sequence of UniProt Q6P5Z2 (whole entry, looked up): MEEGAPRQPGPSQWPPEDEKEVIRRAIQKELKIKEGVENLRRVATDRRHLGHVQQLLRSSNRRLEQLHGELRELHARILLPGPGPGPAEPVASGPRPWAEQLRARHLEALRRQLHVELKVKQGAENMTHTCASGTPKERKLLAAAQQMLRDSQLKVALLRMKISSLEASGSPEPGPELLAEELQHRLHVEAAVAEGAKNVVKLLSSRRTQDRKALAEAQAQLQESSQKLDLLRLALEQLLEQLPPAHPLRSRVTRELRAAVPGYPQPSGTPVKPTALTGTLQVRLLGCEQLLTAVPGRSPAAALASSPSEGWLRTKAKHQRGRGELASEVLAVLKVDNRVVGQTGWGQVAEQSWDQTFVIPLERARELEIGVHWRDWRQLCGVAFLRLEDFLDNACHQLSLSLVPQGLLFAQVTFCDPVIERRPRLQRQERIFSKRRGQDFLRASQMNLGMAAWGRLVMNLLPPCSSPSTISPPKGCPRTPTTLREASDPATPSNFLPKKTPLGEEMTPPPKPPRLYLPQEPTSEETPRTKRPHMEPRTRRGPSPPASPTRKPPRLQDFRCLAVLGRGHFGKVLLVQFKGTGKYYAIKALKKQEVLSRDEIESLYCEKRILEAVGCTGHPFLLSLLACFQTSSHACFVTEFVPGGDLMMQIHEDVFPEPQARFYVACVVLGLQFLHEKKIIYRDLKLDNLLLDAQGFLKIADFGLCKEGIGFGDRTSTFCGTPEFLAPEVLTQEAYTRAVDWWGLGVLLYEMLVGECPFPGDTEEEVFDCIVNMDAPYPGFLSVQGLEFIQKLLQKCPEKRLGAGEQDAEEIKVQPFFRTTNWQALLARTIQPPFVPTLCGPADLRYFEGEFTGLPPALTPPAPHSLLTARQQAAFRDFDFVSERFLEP
Sequence of UniProt Q16566 (whole entry, looked up): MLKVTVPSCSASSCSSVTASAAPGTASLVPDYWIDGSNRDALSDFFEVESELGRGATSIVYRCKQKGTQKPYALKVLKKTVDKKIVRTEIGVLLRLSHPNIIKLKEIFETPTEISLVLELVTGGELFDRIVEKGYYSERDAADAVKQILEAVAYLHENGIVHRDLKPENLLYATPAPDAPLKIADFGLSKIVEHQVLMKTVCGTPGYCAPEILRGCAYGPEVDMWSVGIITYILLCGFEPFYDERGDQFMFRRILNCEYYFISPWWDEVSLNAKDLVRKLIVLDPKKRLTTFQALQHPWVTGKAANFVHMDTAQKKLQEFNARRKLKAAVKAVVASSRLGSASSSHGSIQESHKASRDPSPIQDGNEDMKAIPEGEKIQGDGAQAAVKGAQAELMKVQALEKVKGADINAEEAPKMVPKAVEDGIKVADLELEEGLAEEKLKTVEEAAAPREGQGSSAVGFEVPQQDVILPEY
Sequence of UniProt Q02763 (whole entry, looked up): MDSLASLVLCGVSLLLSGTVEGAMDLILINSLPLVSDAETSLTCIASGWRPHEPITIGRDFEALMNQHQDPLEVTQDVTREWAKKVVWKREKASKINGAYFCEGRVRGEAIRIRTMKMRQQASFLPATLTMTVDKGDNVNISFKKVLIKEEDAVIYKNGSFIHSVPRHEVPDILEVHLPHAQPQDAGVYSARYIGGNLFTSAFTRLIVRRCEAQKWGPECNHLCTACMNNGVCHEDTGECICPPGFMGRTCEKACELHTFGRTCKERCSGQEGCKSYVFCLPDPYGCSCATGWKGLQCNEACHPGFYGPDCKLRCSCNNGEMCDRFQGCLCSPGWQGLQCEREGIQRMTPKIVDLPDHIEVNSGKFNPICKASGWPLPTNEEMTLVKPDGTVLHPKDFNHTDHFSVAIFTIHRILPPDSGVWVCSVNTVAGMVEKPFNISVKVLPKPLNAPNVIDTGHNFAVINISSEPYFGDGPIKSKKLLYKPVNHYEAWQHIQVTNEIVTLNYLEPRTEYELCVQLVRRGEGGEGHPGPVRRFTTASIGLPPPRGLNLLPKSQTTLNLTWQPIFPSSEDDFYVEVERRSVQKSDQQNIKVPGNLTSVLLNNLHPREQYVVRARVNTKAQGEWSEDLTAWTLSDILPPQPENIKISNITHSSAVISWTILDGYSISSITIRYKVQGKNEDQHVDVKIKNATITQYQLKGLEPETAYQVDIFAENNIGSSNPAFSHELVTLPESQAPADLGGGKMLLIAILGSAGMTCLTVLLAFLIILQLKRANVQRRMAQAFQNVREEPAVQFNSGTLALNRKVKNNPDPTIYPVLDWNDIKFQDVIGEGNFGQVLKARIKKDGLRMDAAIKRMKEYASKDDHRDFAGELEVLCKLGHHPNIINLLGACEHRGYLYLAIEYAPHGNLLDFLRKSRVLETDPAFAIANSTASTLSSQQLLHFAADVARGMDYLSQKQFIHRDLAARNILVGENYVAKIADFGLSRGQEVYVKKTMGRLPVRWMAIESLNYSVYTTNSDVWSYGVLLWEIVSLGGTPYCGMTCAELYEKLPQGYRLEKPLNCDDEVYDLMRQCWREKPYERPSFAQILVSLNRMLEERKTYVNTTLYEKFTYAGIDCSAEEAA
Sequence of UniProt P53667 (whole entry, looked up): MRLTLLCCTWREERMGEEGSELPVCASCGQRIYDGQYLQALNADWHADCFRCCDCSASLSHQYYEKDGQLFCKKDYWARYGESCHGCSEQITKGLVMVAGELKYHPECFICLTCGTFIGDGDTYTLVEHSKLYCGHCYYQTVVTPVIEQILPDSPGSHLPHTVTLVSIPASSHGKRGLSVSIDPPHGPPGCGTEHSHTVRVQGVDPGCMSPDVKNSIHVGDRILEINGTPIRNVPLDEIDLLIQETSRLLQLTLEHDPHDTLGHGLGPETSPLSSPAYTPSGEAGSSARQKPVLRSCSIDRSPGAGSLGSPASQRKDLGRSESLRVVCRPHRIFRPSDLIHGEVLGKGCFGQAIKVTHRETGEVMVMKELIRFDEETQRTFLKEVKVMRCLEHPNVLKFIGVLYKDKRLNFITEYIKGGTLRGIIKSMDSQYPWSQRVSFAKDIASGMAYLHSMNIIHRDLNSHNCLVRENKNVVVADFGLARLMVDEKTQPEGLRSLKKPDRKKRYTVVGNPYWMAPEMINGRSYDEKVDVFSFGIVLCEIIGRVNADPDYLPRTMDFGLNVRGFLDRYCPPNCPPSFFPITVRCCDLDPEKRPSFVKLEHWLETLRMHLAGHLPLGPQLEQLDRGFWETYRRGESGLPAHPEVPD
Sequence of UniProt P43403 (whole entry, looked up): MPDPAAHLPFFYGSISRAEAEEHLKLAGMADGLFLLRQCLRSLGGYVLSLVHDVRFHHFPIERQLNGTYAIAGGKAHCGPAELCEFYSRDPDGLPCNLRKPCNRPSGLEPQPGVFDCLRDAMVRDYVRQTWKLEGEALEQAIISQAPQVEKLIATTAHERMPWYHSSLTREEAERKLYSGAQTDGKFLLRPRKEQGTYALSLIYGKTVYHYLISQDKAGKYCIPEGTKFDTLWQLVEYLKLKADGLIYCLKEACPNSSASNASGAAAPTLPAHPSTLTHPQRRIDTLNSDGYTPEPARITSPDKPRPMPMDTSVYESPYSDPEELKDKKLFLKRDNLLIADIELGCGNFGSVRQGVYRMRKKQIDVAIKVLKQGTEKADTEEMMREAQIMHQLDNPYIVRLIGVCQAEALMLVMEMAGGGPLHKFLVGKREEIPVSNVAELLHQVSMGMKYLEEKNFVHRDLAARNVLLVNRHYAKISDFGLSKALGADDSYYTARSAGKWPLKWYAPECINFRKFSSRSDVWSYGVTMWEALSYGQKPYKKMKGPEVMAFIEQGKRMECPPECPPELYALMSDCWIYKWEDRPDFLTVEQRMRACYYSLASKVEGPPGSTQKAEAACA
Sequence of UniProt O43781 (whole entry, looked up): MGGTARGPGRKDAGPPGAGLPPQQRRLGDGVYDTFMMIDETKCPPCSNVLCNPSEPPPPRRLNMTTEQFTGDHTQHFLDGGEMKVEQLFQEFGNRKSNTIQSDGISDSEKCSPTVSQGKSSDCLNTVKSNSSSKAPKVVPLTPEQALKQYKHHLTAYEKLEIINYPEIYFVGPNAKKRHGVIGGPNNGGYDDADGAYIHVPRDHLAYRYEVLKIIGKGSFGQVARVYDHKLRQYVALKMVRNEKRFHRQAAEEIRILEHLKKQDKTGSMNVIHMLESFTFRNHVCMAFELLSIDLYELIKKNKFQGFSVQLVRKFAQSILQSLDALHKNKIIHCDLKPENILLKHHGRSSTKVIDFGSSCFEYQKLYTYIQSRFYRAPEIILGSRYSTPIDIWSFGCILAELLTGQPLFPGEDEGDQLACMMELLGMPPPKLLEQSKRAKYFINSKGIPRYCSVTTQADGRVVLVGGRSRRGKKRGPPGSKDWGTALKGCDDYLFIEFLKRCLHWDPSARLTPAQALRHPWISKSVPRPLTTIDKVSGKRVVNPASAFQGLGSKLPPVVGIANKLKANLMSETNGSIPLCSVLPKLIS

Structure (SMILES)	target	test	setting	how to read	remaining activity
COc1ccc(F)cc1C(=O)NCc1ccc(-c2nn([C@@H](C)C(F)(F)F)c(N)c2C(N)=O)cc1	PKN3	kinase activity, inhibitor, HotSpot radiometric	100 nM, together with: ATP 10 µM	–	84.5 ± 1.6%
COc1cc(Nc2ncc3c(n2)-c2ccc(Cl)cc2C(c2c(F)cccc2OC)=NC3)ccc1C(=O)O	TYRO3	kinase activity	1 µM	–	49%
C=CC(=O)N1CCC[C@@H](n2nc(-c3ccc(Oc4ccccc4)cc3)c3c(N)ncnc32)C1	DYRK3 (Homo sapiens, UniProt O43781)	–	1 µM	–	49.9%
COc1cc(-c2cncc3c2CN(C)Cc2cc(N4CCNCC4)ccc2-3)cc(OC)c1OC	TEK (Homo sapiens, UniProt Q02763)	kinase activity	1 µM, together with: ATP 10 µM	baseline: DMSO control	94%
O=C(NC1CCC1)c1ccc2nc(-c3cccc(NS(=O)(=O)NCCN4CCCCC4)c3)cn2c1	CAMK4 (Homo sapiens, UniProt Q16566)	enzyme activity	10 µM	–	100%
Cc1cc(Nc2cc(N3CCN(C)CC3)nc(Sc3ccc(NC(=O)C4CC4)cc3)n2)[nH]n1	LIM domain kinase 1 (LIMK1, Homo sapiens, UniProt P53667)	kinase activity, KinaseProfiler	0.03 µM, species human	baseline: control	91%
COc1cc(F)ccc1-c1ncnc(Nc2cccc(C[S@](C)(=N)=O)c2)n1	ZAP70 (Homo sapiens, UniProt P43403)	kinase activity	10 µM, together with: 10 µM ATP	–	98%
COc1cc(N2CCN(C)CC2)ccc1Nc1nc(N)n(C(=S)NCc2c(Cl)cccc2Cl)n1	MAP3K2 (Homo sapiens, UniProt Q9Y2U5)	enzyme activity	10 µM	baseline: control	1.4%
CC#CC(=O)N1CCC[C@H]1c1nc(-c2ccc(C(=O)Nc3ccccn3)cc2)c2c(N)nccn12	PKN3	kinase activity, inhibitor, HotSpot radiometric	100 nM, together with: ATP 10 µM	–	98.2 ± 1.1%
NC/C(=C\F)COc1cccc(Cn2c(=S)[nH]c(=O)c3[nH]cnc32)c1	Eosinophil peroxidase (Homo sapiens, UniProt P11678)	H2O2 electrode	20 µM	baseline: control	46.3% and 34.8%
O=C(O)c1ccc(Nc2ncc3c(n2)-c2ccc(Cl)cc2C(c2c(F)cccc2F)=NC3)cc1	Flt1(h)	kinase activity	1 µM	–	65%
O=C1NC(=O)/C(=C/c2ccc(-c3ccc(F)cc3O)o2)S1	AMPK	enzyme activity	10 µM	–	39%

Some of these lines once more:
Structure (SMILES)	target	test	setting	how to read	remaining activity
O=C1NC(=O)/C(=C/c2ccc(-c3ccc(F)cc3O)o2)S1	AMPK	enzyme activity	10 µM	–	39%
